{"data": "Published values pooled from the literature", "note": "A part holds a random share of what one study measured."}
{"data": "Study 1", "target": "Histone acetyltransferase KAT6A, winged helix 1, GST fusion (KAT6A, Homo sapiens, UniProt Q92794, residues 1-85)", "technique": "protein binding microarray", "form": "double-stranded DNA, one strand shown", "medium": "in vitro", "concentration": "not given", "notes": "8-mer, flanks averaged, mean of 2 arrays, mostly near background", "reference": "not given", "reading": "higher = stronger binding", "Residues (chain)": "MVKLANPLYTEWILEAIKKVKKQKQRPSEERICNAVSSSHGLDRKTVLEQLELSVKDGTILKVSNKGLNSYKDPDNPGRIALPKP"}
{"Oligonucleotide": "ATGGTCTA", "E-score": -0.136}
{"Oligonucleotide": "CTAAGCAA", "E-score": -0.0795}
{"Oligonucleotide": "ACGAAAAG", "E-score": -0.117}
{"Oligonucleotide": "CTTTGTGC", "E-score": -0.0661}
{"Oligonucleotide": "CTAATAGC", "E-score": 0.0284}
{"Oligonucleotide": "TGCTCTAA", "E-score": -0.00248}
{"Oligonucleotide": "AACCCATT", "E-score": -0.126}
{"Oligonucleotide": "ATATCACA", "E-score": -0.138}
{"Oligonucleotide": "CTGCTAGA", "E-score": -0.205}
{"Oligonucleotide": "CCCTCAAA", "E-score": -0.199}
{"Oligonucleotide": "CGGTGCAG", "E-score": 0.215}
{"Oligonucleotide": "CATTCCGC", "E-score": 0.248}
{"Oligonucleotide": "AAGGTTTG", "E-score": -0.146}
{"Oligonucleotide": "CGTTCGGA", "E-score": 0.152}
{"Oligonucleotide": "GTTACCAA", "E-score": 0.0196}
{"Oligonucleotide": "ATTTAAAT", "E-score": -0.155}
{"Oligonucleotide": "TTAGGCAA", "E-score": -0.179}
{"Oligonucleotide": "GTGGAGTA", "E-score": -0.179}
{"Oligonucleotide": "ACATGGAT", "E-score": -0.093}
{"Oligonucleotide": "ACCTGAGG", "E-score": -0.0319}
{"Oligonucleotide": "TACCTAAA", "E-score": -0.00813}
{"Oligonucleotide": "CTAAATAC", "E-score": -0.0801}
{"Oligonucleotide": "CACGTCTA", "E-score": -0.235}
{"Oligonucleotide": "AGTGGCTG", "E-score": -0.0616}
{"Oligonucleotide": "ATAAAGGG", "E-score": 0.0998}
{"data": "Study 2", "target": "RING finger protein unkempt homolog, zinc fingers 1-6, GST-SBP tag (UNK, Homo sapiens, UniProt Q9C0B0, residues 30-357)", "technique": "RNA Bind-n-Seq", "form": "RNA", "medium": "in vitro", "concentration": "not given", "notes": "RNA with constant flanks, human-mouse chimeric sites, ends assumed", "reference": "input RNA pool", "reading": "higher = stronger binding", "constant ends, left off below": "GGGAGUUCUACAGUCCGACGAUC … CAACAGAGGAUUGAGCAUCA", "Target sequence (chain)": "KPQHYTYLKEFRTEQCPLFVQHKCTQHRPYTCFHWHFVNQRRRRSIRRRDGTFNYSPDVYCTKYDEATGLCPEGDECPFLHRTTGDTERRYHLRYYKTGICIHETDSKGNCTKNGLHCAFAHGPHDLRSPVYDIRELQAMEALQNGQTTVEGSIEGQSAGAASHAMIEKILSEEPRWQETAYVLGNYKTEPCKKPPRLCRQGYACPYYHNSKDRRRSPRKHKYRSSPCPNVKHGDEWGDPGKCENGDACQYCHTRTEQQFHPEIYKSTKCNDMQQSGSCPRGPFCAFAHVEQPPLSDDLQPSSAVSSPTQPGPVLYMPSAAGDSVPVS"}
{"Oligonucleotide": "ACAGUUAUAUUGUUGAGGUUUGUAUUUAUAUAUUCUUAUGGUGUCUGCUUGCCUGUGACUUCUGGUAAAAUAAAAUAAGCCUUUGAAAAUAUUUUAGCAUGGUAUUUAACAUUUUCUAAA", "bound/input enrichment [ratio]": 1.83}
{"Oligonucleotide": "AGUGUGCAGGAAUUCAUGACCUUUACAAGUCAACUGAUUGUGGAACGCUCGGGGAAAGGCAGCAGAGCUUCUGUCAAAGAACAAGAGUAUCUGUGCCAUGUCUACGUCCGGAGCGACAGU", "bound/input enrichment [ratio]": 0.0928}
{"Oligonucleotide": "UCCCAAAUCCAGCAGCUAGAAGGAGCCAAUUGUUUGUCACUCCACACGCAGGGAGGGCGAUAACAUUGUACAUUGGUUUACAUUUUUUCCCCCUGUGGAUUUUUCUAGAGGUCAUAGUGC", "bound/input enrichment [ratio]": 0.627}
{"Oligonucleotide": "UUCCCAACCUCCCGCCUCACCCCACCCCCGCUUUUUGGAAAGUUUUUGGCUUUUUUUUUCCUUCCCCAUACAAAGUGAUUACAGUUUCCCCCGCAAGGGUCUAUCGAAGGGCUUGACGGA", "bound/input enrichment [ratio]": 1.13}
{"Oligonucleotide": "GAGCCAAGUCGGCAGUUUGUAAAGGACUCAAUUCGGCUGGUUAAAAGAUGCACCAAACCCGACAGAAAAGAAUUCCAGAAGAUUGCCAUGGCUACAGCUAUAGGAUUUGCUAUCAUGGGA", "bound/input enrichment [ratio]": 0.22}
{"Oligonucleotide": "GUUGCCAGCUUCCGGUUGGCCUCCAUCCGGUUCUCUCCUGAGCUACGUGUCUCUACGCUCUCAAUCCGCCAUCCAACAAACAUGGAUCAGGUAAUGCAGUUUGUGGAGCCCAGCCGGCAG", "bound/input enrichment [ratio]": 0.1}
{"Oligonucleotide": "CACAGAGCAGCACCUACCCCCUCCUCCUUUCCACACCUGCAAACUCUUUUACUUGGGCUGCAUAGUUAGUGUAAUUAACAUCGCAGCUUGAGGGCUCCUGUGGCAAAUUCCCGGAUUAAA", "bound/input enrichment [ratio]": 0.467}
{"Oligonucleotide": "GGCCUGGGACCGUCCUGGGCUAGUACAAAUAGCGGCAGUGGAGGCUCGAGAGGAAAGUUUGUUAGUGAGGCAGUGGUUAGAGGCCGUCAUGUACGGUCUUUACACGAAUAGAUGUGUUCU", "bound/input enrichment [ratio]": 0.755}
{"Oligonucleotide": "CUGAGGAUACCACUGAAGAGACCUUAAAAGAAUCAUUUGAGGGCUCUGUUCGUGCAAAGGAUAGUUAUGAUCGGGAAACUGGUUCUUUCCAAAGGGUUGGUUUUGUAGACUUUAAUAGUG", "bound/input enrichment [ratio]": 0.992}
{"Oligonucleotide": "CACAGAGCAGCACCUACCCCCUCCUCCUUUCCACACCUGCAAACUCUUUUACUUGGGCUGAAUAUUUAGUGUAAUUACAUCUCAGCUUUUGAGGGCUCUGUGGCAAAUUCCCGGAUUAAA", "bound/input enrichment [ratio]": 1.04}
{"Oligonucleotide": "CGCAGAAGGUUAAAGGGUGAGAGUGGGGUGGAAGACUGUGUCAUGGCUCUGGAGACACUGUUCAGUGUCCUGCUUUCUCUGUGCAGACUUAUGGCUCCUUACACGCCCUUUCUGACUGAG", "bound/input enrichment [ratio]": 0.0699}
{"data": "Study 3", "target": "Sal-like protein 4, full length isoform A (SALL4, Homo sapiens, UniProt Q9UJQ4, residues 1-1053)", "technique": "universal PBM", "form": "double-stranded DNA, one strand shown", "medium": "in vitro", "concentration": "600 nM", "notes": "8-mer, flanks averaged, mean of replicates", "reading": "higher = stronger binding", "chain of UniProt Q9UJQ4 (whole entry, looked up)": "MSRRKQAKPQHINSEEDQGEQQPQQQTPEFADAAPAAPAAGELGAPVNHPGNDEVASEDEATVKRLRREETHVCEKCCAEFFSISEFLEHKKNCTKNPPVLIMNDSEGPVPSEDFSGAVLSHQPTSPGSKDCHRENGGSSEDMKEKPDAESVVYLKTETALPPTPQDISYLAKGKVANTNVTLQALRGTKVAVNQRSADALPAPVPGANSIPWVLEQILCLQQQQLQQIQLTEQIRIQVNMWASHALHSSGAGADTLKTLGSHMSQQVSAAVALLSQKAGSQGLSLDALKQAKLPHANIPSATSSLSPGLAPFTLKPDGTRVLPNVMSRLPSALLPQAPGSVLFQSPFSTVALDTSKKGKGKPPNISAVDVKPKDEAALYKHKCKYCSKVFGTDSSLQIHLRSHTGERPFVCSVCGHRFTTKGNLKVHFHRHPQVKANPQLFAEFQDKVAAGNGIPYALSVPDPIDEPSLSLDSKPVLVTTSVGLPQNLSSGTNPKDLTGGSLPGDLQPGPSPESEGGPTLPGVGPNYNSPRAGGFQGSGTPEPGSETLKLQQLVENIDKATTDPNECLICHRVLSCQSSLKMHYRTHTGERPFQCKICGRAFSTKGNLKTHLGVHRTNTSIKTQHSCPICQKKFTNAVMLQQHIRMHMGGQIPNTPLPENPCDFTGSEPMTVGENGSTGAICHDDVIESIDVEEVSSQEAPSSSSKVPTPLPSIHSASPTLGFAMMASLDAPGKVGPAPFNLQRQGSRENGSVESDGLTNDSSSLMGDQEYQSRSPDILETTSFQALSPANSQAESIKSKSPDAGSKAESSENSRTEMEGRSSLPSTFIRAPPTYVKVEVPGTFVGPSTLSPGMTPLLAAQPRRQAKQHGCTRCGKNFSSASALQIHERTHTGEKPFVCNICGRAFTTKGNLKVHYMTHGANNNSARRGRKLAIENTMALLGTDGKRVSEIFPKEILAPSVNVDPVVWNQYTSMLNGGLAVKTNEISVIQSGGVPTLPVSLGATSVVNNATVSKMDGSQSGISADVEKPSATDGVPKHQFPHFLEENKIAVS"}
{"Oligonucleotide": "AAGTTGCC", "E-score": -0.227}
{"Oligonucleotide": "ACACATTC", "E-score": 0.168}
{"Oligonucleotide": "CAGCCAGA", "E-score": -0.223}
{"Oligonucleotide": "CGACTCCC", "E-score": -0.109}
{"Oligonucleotide": "GTCGTGGA", "E-score": -0.118}
{"Oligonucleotide": "GAAAGTGC", "E-score": -0.152}
{"Oligonucleotide": "CGAGTCAA", "E-score": -0.0412}
{"Oligonucleotide": "AGGCCGCA", "E-score": -0.282}
{"Oligonucleotide": "CACCAACC", "E-score": -0.258}
{"Oligonucleotide": "AAGCTCAA", "E-score": -0.0463}
{"Oligonucleotide": "CCAAGAGC", "E-score": -0.283}
{"Oligonucleotide": "ATAAGAAG", "E-score": 0.233}
{"Oligonucleotide": "CTTAGAAC", "E-score": 0.0502}
{"Oligonucleotide": "CGGGGGTA", "E-score": -0.139}
{"Oligonucleotide": "TGCACGAA", "E-score": 0.118}
{"Oligonucleotide": "ATTTGCCA", "E-score": 0.0475}
{"Oligonucleotide": "TATTCCGA", "E-score": 0.191}
{"Oligonucleotide": "ATCCTTTA", "E-score": 0.157}
{"Oligonucleotide": "CCTATTGA", "E-score": 0.217}
{"Oligonucleotide": "AGGATCAC", "E-score": -0.0552}
{"Oligonucleotide": "CACTGTTA", "E-score": 0.0556}
{"Oligonucleotide": "TACTTGCA", "E-score": 0.158}
{"Oligonucleotide": "CCAAGATA", "E-score": 0.13}
{"data": "Study 4", "target": "Interferon regulatory factor 3, full length, phosphomimetic (IRF3, Homo sapiens, UniProt Q14653, residues 1-427, S386D/S396D/S398D/S402D/T404D/S405D)", "technique": "protein-binding microarray", "form": "double-stranded DNA, one strand shown", "medium": "in vitro", "concentration": "2540 nM top", "notes": "60-bp whole probe", "together with": "salmon DNA 0.4 mg/ml", "reference": "random background probes", "reading": "higher = stronger binding", "constant ends, left off below": "GCCTAGCAC … GTCTTGATTCGCTTGACGCTGCTG", "Residues (chain)": "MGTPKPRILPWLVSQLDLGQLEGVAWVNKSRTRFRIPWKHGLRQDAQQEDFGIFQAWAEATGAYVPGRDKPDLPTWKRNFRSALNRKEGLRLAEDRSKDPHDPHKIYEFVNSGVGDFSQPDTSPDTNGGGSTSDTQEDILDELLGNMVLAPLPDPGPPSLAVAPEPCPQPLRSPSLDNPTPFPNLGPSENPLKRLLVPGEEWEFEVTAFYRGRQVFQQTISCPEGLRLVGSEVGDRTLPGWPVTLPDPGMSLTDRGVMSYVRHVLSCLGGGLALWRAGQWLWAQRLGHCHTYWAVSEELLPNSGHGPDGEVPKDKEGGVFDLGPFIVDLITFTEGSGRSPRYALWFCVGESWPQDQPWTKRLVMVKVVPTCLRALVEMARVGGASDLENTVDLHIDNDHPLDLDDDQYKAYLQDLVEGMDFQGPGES"}
{"Oligonucleotide": "TTAGGTCTCGGTATCGGTTAGTGCTAG", "fitted relative affinity": "2.6 z-score"}
{"Oligonucleotide": "GTGATTTCAGTTTTCTTTTCGTGCTAG", "fitted relative affinity": "6.39 z-score"}
{"Oligonucleotide": "TTAGGTCCCGGTTTCGGTTAGTGCTAG", "fitted relative affinity": "4.24 z-score"}
{"Oligonucleotide": "TCAGTTTCGTATCTTCATACTGTGCTA", "fitted relative affinity": "7.46 z-score"}
{"Oligonucleotide": "TTAGAACTGGGGTATAGATTAGTGCTA", "fitted relative affinity": "-0.69 z-score"}
{"Oligonucleotide": "TCAAGTTTCCATTTTCTACTGTGCTAG", "fitted relative affinity": "8.55 z-score"}
{"Oligonucleotide": "TGAGATTTCAGTCTCGATTAGTGCTAG", "fitted relative affinity": "2.08 z-score"}
{"Oligonucleotide": "TATTGTCTCCCCCATCTTGTTGTGCTA", "fitted relative affinity": "0.714 z-score"}
{"Oligonucleotide": "TTAGGGTCCCTTTTCCTTTAGTGCTAG", "fitted relative affinity": "4.52 z-score"}
{"Oligonucleotide": "AATTCTTTGCTCATTTTTCAGGTGCTA", "fitted relative affinity": "1.15 z-score"}
{"Oligonucleotide": "TTAGATCTCAGTTTCGATTGGTGCTAG", "fitted relative affinity": "2.76 z-score"}
{"Oligonucleotide": "TTAAGTATCGACACTGGGTTAGTGCTA", "fitted relative affinity": "0.35 z-score"}
{"Oligonucleotide": "TTAGGACTGGACTGTCGGTTAGTGCTA", "fitted relative affinity": "-0.682 z-score"}
{"Oligonucleotide": "GACGGTATCGGGTTGCGGGACGTGCTA", "fitted relative affinity": "1.88 z-score"}
{"Oligonucleotide": "GACGAACTGAGGTTCGAGACGTGCTAG", "fitted relative affinity": "-0.257 z-score"}
{"Oligonucleotide": "TCAGTTACCCCTCATCAAACTGTGCTA", "fitted relative affinity": "1.44 z-score"}
{"Oligonucleotide": "GCCAAAAGTGTAAATGTAAGGTGCTAG", "fitted relative affinity": "-0.22 z-score"}
{"Oligonucleotide": "TTAGGTTTAGGGTATCGGTTAGTGCTA", "fitted relative affinity": "0.363 z-score"}
{"Oligonucleotide": "CTAGAACTGAGTATCGATTAGTGCTAG", "fitted relative affinity": "0.332 z-score"}
{"Oligonucleotide": "GACGAATTCAGTCTCGAGACGTGCTAG", "fitted relative affinity": "0.868 z-score"}
{"Oligonucleotide": "TCAGGAGTGTTTCTCAGACTGTGCTAG", "fitted relative affinity": "-0.0178 z-score"}
{"Oligonucleotide": "GACGGTCTCCTGCTCCTGACGTGCTAG", "fitted relative affinity": "0.568 z-score"}
{"Oligonucleotide": "GACGGACTGATACTGCTGACGTGCTAG", "fitted relative affinity": "-0.269 z-score"}
{"Oligonucleotide": "TTAGGTATCGGGACTTGGTTAGTGCTA", "fitted relative affinity": "0.724 z-score"}
{"Oligonucleotide": "GGTGCTGTTTACATAGTTCTGTGCTAG", "fitted relative affinity": "3.63 z-score"}
{"note": "Repeated from above (study 3):"}
{"Oligonucleotide": "ATAAGAAG", "E-score": 0.233}
{"Oligonucleotide": "CTTAGAAC", "E-score": 0.0502}
{"Oligonucleotide": "CGGGGGTA", "E-score": -0.139}
{"Oligonucleotide": "TGCACGAA", "E-score": 0.118}
{"Oligonucleotide": "ATTTGCCA", "E-score": 0.0475}
{"Oligonucleotide": "TATTCCGA", "E-score": 0.191}
{"Oligonucleotide": "ATCCTTTA", "E-score": 0.157}
